Experimental data collected from several papers.
Compare with care: the assays were run in different laboratories. Values joined by “and” are separate records of one study, mostly repeats; a detail may differ.
folP: Dihydropteroate synthase (folP, Bacteria, UniProt P0AC13)
Chain of UniProt P0AC13 (whole entry, looked up): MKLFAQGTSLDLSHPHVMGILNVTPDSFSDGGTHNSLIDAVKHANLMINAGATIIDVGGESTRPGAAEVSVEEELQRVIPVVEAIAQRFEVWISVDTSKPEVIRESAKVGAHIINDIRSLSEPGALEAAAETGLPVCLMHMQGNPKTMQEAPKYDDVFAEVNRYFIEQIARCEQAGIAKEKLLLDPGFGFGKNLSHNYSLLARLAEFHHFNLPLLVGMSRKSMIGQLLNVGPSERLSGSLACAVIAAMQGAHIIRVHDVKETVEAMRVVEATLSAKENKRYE
Chain of UniProt Q13148 (whole entry, looked up): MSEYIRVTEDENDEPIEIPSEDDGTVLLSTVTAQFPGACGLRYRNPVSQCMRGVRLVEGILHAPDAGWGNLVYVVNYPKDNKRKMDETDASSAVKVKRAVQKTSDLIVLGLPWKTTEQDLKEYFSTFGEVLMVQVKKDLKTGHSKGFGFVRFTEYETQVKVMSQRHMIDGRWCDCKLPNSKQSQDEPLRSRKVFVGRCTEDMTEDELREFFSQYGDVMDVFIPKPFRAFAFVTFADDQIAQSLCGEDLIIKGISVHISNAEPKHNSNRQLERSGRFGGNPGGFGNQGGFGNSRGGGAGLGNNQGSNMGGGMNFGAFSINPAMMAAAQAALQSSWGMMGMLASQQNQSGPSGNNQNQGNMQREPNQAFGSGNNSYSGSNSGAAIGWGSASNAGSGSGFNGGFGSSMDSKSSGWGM
Chain of UniProt O94762 (whole entry, looked up): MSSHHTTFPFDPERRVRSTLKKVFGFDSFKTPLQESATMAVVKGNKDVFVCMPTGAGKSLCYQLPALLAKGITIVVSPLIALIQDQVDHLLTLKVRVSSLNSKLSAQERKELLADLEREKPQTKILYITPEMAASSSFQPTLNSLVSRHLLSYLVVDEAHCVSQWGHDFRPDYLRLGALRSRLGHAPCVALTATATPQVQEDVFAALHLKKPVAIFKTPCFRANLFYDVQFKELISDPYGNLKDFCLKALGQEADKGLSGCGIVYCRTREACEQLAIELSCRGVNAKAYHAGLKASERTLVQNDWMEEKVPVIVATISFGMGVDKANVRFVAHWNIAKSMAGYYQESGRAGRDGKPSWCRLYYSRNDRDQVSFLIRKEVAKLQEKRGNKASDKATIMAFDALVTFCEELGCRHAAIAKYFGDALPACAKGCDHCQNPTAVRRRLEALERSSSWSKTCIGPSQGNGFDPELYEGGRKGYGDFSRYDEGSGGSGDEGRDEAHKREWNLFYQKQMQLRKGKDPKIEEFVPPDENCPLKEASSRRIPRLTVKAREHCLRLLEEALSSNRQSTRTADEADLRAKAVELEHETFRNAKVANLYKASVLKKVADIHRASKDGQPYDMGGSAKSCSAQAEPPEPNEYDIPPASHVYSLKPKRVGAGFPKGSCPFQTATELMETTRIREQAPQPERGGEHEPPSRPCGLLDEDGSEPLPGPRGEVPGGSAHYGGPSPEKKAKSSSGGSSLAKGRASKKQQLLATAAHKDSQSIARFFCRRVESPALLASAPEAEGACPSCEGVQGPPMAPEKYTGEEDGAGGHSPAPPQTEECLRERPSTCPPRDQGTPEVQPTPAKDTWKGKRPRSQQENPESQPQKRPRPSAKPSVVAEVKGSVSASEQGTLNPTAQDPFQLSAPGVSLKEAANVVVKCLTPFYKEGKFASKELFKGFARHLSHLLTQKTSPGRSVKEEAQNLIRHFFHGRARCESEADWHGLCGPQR
Chain of UniProt P22413 (whole entry, looked up): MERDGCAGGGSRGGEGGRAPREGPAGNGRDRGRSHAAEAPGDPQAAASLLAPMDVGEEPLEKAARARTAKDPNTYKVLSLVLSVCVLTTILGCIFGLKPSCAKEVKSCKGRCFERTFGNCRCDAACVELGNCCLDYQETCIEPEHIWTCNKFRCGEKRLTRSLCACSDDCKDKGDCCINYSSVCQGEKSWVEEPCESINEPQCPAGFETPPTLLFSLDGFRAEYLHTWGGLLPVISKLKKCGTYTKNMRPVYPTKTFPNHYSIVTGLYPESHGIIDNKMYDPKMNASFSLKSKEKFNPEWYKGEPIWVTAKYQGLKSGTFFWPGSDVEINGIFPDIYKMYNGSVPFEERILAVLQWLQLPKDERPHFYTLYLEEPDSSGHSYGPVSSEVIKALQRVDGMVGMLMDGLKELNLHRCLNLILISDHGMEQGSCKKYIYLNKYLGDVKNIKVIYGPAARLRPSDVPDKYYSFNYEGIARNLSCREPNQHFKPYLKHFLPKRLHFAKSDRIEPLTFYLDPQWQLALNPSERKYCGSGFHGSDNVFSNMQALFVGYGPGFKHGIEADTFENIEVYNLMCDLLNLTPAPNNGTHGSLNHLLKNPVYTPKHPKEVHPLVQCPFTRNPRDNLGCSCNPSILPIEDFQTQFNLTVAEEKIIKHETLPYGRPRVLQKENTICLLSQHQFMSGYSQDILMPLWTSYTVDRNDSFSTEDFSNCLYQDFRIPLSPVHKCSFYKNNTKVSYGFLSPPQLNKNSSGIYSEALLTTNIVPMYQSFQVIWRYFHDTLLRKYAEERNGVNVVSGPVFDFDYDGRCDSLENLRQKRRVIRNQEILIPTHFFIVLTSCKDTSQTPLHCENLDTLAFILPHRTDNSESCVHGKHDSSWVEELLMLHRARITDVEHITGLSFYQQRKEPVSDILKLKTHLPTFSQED
Chain of UniProt P97287 (152-308, unmodified, looked up): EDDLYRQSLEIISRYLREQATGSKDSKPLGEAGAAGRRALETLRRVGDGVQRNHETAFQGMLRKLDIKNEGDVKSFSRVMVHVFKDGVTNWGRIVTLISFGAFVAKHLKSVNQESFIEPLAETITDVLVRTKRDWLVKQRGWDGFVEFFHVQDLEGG
Chain of UniProt P08191 (whole entry, unmodified, looked up): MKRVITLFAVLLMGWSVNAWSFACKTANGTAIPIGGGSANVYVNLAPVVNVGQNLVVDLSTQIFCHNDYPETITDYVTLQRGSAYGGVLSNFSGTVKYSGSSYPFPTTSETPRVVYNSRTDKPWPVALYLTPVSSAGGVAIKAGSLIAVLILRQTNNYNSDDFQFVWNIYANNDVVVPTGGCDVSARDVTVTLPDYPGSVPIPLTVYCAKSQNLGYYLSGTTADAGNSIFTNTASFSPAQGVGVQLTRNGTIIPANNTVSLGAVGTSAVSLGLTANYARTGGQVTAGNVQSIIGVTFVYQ

`CCCCCCCO[C@H]1CO[C@H](CO)[C@@H](O)[C@H](O)[C@@H]1O`: “enthalpy change (ΔH obs)” -9.56 kcal/mol (Type 1 fimbrin D-mannose specific adhesin, lectin domain (fimH, Escherichia coli K-12, UniProt P08191); isothermal titration calorimetry; concentration not given, 15 °C).
Under “melting temperature shift”, `CC(CC(=O)O)c1n[nH]c2nc(N)[nH]c(=O)c2c1=O` (stereo not drawn) is recorded as 15.5 °C (folP; CETSA HiBiT; Escherichia coli, cell lysate; concentration not given; relative to: DMSO).
For `CN(CCCN1CCN(C(=O)CN2CCN(CC(=O)[O-])CCN(CC(=O)[O-])CCN(CC(=O)[O-])CC2)CC1)c1ccc2nccc(C(=O)NCC(=O)N3CC(F)(F)C[C@H]3C#N)c2c1.[Lu+3]`, “binding constant Ka” read 32200 M⁻¹ (Albumin (ALB, Homo sapiens, UniProt P02768); fluorescence quenching).
The remaining activity of `COc1ccccc1-c1ccncc1C(=O)Nc1nnc(OCc2ccc(Cl)cc2)s1` is reported as 104% (RECQL5 (Homo sapiens, UniProt O94762); ATPase activity, ADP-Glo; 0.24 µM, 1 h).
`COc1cc(Nc2nccc(-c3cnn4nc(OC)ccc34)n2)cc(C(F)(F)F)c1` gave a remaining binding of 100% (FLT3 (Homo sapiens, UniProt P36888, D835Y); binding; 1 µM).
`COc1cccc2c(N3CCC(CCP(=O)(O)O)CC3)ncnc12` has a koff of 0.00197 s⁻¹ (ENPP1 (Homo sapiens, UniProt P22413); binding, SPR).
`O=C1c2sc(-c3ccc(N4CCC(F)C4)nc3F)nc2CCN1c1cccnc1` (stereo not drawn) gave a specific binding of 2.59 nM and 2.4 nM (TAR DNA-binding protein 43, aggregated (TARDBP, Homo sapiens, UniProt Q13148); radioligand binding; human, FTLD-TDP type B extract; added: radioligand 18.97 nM).
For `CCCCCC[C@H](NC(=O)[C@H](CCC(=O)O)NC(=O)[C@H](CCCNC(=N)N)NC(=O)[C@H](C)NC(=O)[C@H](Cc1c[nH]c2ccccc12)NC(=O)[C@H](CCC(=O)O)NC(=O)[C@H](CCC(=O)O)NC(=O)[C@H](CCC(=O)O)NC(C)=O)C(=O)NCC(=O)N[C@@H](C)C(=O)N[C@@H](CCC(N)=O)C(=O)N[C@@H](CC(C)C)C(=O)N[C@@H](CCCNC(=N)N)C(=O)N[C@@H](CCCNC(=N)N)C(=O)N[C@@H](C)C(=O)N[C@@H](C)C(=O)N[C@@H](CC(=O)O)C(=O)N[C@@H](CC(=O)O)C(=O)N[C@@H](CC(C)C)C(=O)N[C@@H](CC(N)=O)C(=O)N[C@@H](C)C(=O)N[C@@H](CCC(N)=O)C(=O)N[C@@H](Cc1ccc(O)cc1)C(=O)N[C@@H](CCC(=O)O)C(=O)N[C@@H](CCCNC(=N)N)C(=O)N[C@@H](CCCNC(=N)N)C(=O)N[C@@H](CCCNC(=N)N)C(N)=O`, the ΔΔG was 0.2 kcal/mol (Induced myeloid leukemia cell differentiation protein Mcl-1 homolog, residues 152-308 (Mus musculus, UniProt P97287); binding, SPR; relative to: PUMA peptide).
`Cn1nc(CCC(=O)O)c(=O)c2c(=O)[nH]c(N)nc21` gave a melting temperature of 69.6 °C (folP; CETSA HiBiT; whole cells).
